# Results of several laboratories.
# Compare with care: the assays were run in different laboratories. Several values in a cell are separate wells, animals, samples, runs or records. ± gives the spread as reported.
# Organism: SARS-CoV-2
Compound,assay,test system,setting,scale,measurement,result
Cc1ccc(Nc2ccnc(N3CCC(C(=O)NCCCc4ccccc4)CC3)n2)cc1,cytopathic effect,USA_WA1/2020,"retest, 8-point, duplicates",,efficacy,62%
CN1CCCC(CC2c3ccccc3Sc3ccccc32)C1 (stereo not shown),"viral replication, GFP plate reader screen",,cell-based,,EC50,9.55 µM
Cc1ccc(NS(=O)(=O)c2cccc(C(=O)NC3CCN(c4ncnc5[nH]cnc45)CC3)c2)cc1,,"A549-ACE2, Wuhan-Hu-1",200 µM,baseline: untreated,relative infection,15.7%
NCC(=O)CCC(=O)O,viral replication,Huh-7,,,IC50,> 2 µM
NC(=O)C1(N2CCCCC2)CCN(CCCN2c3ccccc3CCc3ccccc32)CC1,"viral replication, high-content imaging screen",,cell-based,,EC50,> 100 µM
CCN(CC)CCOC(=O)C(O)(c1ccccc1)c1ccccc1,"viral replication, anti-nucleoprotein immunostaining",Vero E6,,,IC50,> 10 µM
CC(C)(C)[C@H](NC(=O)C(F)(F)F)C(=O)N1C[C@H]2[C@@H]([C@H]1C(=O)N[C@H](C#N)C[C@@H]1CCNC1=O)C2(C)C,viral replication,Vero E6,1.25 µM,,inhibition,13.7% and 25.3%
N#CC[C@H](C1CCCC1)n1cc(-c2ncnc3[nH]ccc23)cn1,,,"concentration not given, Paris laboratory",,viral replication inhibition,inactive
CC(C)=CCc1c(O)ccc(C(=O)/C=C/c2ccc(O)cc2)c1O,viral replication,Vero E6,50 µM,,CPE inhibition,25%
N=C(N)c1ccc2cc(OC(=O)c3ccc(N=C(N)N)cc3)ccc2c1,,,"concentration not given, Paris laboratory",,viral replication inhibition,inactive
CC(=O)O[C@]1(C(C)=O)CC[C@H]2[C@@H]3CCC4=CC(=O)CCC4=C3[C@@H](c3ccc(N(C)C)cc3)C[C@@]21C,viral replication,Huh-7,,,IC50,> 2 µM
C=C1CC[C@@H]2[C@](C)(CO)[C@H](O)CC[C@@]2(C)[C@@H]1C/C=C1/C(=O)OC[C@H]1O,"viral replication, GFP plate reader screen",,cell-based,,EC50,> 100 µM
Fc1ccc(-c2ccc(CN3CCN(c4cccc5ccoc45)CC3)[nH]2)cc1,viral replication,"Huh-7-ACE2, USA-WA1/2020",,,EC90,~6.86 µM
N#C[C@@]1(n2ccc(N)nc2=O)O[C@H](CO)[C@@H](O)[C@H]1O,"viral replication, qRT-PCR of viral RNA","Vero, Washington",,,EC90,4.6 ± 0.2 µM
O=C(O[C@@H]1Cc2c(O)cc(O)cc2O[C@@H]1c1cc(O)c(O)c(O)c1)c1cc(O)c(O)c(O)c1,cytopathic effect,Vero E6,"12.5 µM, replicate run",,mean inhibition,0%
Cc1c(Cl)cccc1-c1ccc(CNCCSc2nnnn2-c2ccccc2)o1,cytopathic effect,USA_WA1/2020,"round 1, 5-point",,efficacy,43%
COc1ccc(CN=c2[nH]c(N3CCC[C@H]3CO)ncc2C(=O)NCc2ncccn2)cc1Cl,viral replication,Huh-7,,,IC50,> 2 µM
Cc1nn(-c2ccc(Cl)cc2)c2c1C(c1ccc(Cl)cc1Cl)C(C#N)=C(N)O2 (stereo not shown),viral replication,Vero,1 µM,,viral reduction,1.65%
COc1ccc(CC(=O)NC2CCN(Cc3ccc(-c4ccccc4OC)cc3)C2)cc1 (stereo not shown),"cytopathic effect, cell-based CPE",USA_WA1/2020,"round 1, 5-point dilution",,AC50,14.1 µM
Cc1ccc(C(=O)Oc2ccc(C(O)CNC(C)(C)C)cc2OC(=O)c2ccc(C)cc2)cc1 (stereo not shown),"viral replication, GFP plate reader screen",,cell-based,,EC50,8.13 µM
CC(C)(/C=N/OCC(=O)O)Cc1c(SC(C)(C)C)c2cc(OCc3ccc4ccccc4n3)ccc2n1Cc1ccc(Cl)cc1,viral replication,"Vero E6, USA-WA1/2020",2.5 µM,,inhibition,42%
O=C(/C=C/c1ccc(O)c(O)c1/C=C/c1ccc(O)c(O)c1)O[C@H](Cc1ccc(O)c(O)c1)C(=O)O,viral replication,Vero E6,3.125 µM,,CPE inhibition,0%
O=C(Nc1cccc(Cl)c1)C1CCCN(Cc2cccc(-c3ccc(F)cc3F)c2)C1 (stereo not shown),cytopathic effect,USA_WA1/2020,"retest, 8-point, duplicates",,efficacy,0%
C[C@@H](Oc1cc(-c2cnn(C3CCNCC3)c2)cnc1N)c1c(Cl)ccc(F)c1Cl,"viral replication, high-content imaging screen",,cell-based,,EC50,4.47 µM
CCNC/C=C\CNCCCCNCCCCNC/C=C\CNCC,viral replication,"Vero C1008, USA-WA1/2020","concentration not given, 24 h",,inhibition,50 to 60%
CCN1CCN(c2cc(C)c3cc(NC(=O)c4cccc(Cl)c4)ccc3n2)CC1,cytopathic effect,USA_WA1/2020,"round 1, 5-point",,efficacy,108%
Cc1nn(-c2ccc(Cl)cc2)c2c1C(c1ccc(Cl)c(Cl)c1)C(C#N)=C(N)O2 (stereo not shown),,Vero,10 µM,,viral titre,762000 IU/mL
CC[C@@H]1C(=O)N(C)c2cnc(Nc3ccc(C(=O)N[C@H]4CC[C@H](N5CCN(CC6CC6)CC5)CC4)cc3OC)nc2N1C(C)C,"viral replication, GFP plate reader screen",,cell-based,,EC50,> 50.1 µM
COc1ccc2cc1Oc1ccc(cc1)C[C@H]1c3cc(c(OC)cc3CCN1C)Oc1c(OC)c(OC)cc3c1[C@H](C2)N(C)CC3,viral replication,"Huh-7-ACE2, USA-WA1/2020",,,EC90,1.66 µM
Cc1nn(-c2ccc(Cl)cc2)c2c1C(c1ccc(F)cc1F)C(C#N)=C(N)O2 (stereo not shown),viral replication,Vero,1 µM,,viral reduction,0.0548%
CN(C)CCCN1c2ccccc2Sc2ccc(Cl)cc21,"viral replication, RT-qPCR",A549 expressing ACE2,,,IC50,0.891 µM
COc1ccccc1-c1cccc(CN2CCCC(C(=O)NCc3ccc(F)cc3)C2)c1 (stereo not shown),cytopathic effect,USA_WA1/2020,"round 1, 5-point",,maximum response,62.1%
COc1cc(C(=O)OCCN2CCN(CCCN3c4ccccc4Sc4ccc(Cl)cc43)CC2)cc(OC)c1OC,"viral replication, GFP plate reader screen",,cell-based,,EC50,18.6 µM
CN(C)CCOC(C)(c1ccccc1)c1ccccn1 (stereo not shown),"viral replication, anti-nucleoprotein immunostaining",Vero E6,,,IC50,> 10 µM
O=C(NCc1ccccc1Cl)C1CCCN(Cc2cccc(-c3ccc(F)cc3F)c2)C1 (stereo not shown),cytopathic effect,USA_WA1/2020,"round 1, 5-point",,maximum response,47.4%
Cc1nn(-c2ccc(Cl)cc2)c2c1C(c1ccc(-c3ccccc3)cc1)C(C#N)=C(N)O2 (stereo not shown),"RT-qPCR, refers to: viral RNA",Vero,10 µM,higher means less virus,Ct value,26.1 cycles
COc1ccc2c(Sc3ccccc3)c(C(=O)NCCCN3CCCCC3)[nH]c2c1,"cytopathic effect, cell-based CPE",USA_WA1/2020,,,AC50,14.1 µM
CN(C)C(=N)NC(=N)N,viral replication,Huh-7,,,IC50,> 2 µM
Cc1ccc(-c2nc3c(nc2-c2ccc(C)cc2)N(CCCCCCC(=O)O)CCC3)cc1,"viral replication, high-content imaging screen",BetaCov/Belgium/GHB-03021/2020,cell-based,,EC50,16.6 µM
NC(=O)c1ncn([C@@H]2O[C@H](CO)[C@@H](O)[C@H]2O)n1,,Vero E6,"concentration not given, NYC laboratory",,viral replication inhibition,inactive
O=C(CN1CCC(CN2Cc3ccccc3C2=O)CC1)c1ccc(F)cc1,"viral replication, RT-qPCR",A549 expressing ACE2,,,IC50,> 10 µM
COc1ccc(C[C@@H]2c3cc(Oc4cc(C[C@@H]5c6cc(O)c(OC)cc6CCN5C)ccc4O)c(OC)cc3CCN2C)cc1,cytopathic effect,Vero E6,"25 µM, first run",,inhibition,0%
O=C(c1ccc(-n2nnc3cccnc32)cc1)N(c1ncccc1Cl)[C@@H]1CCCNC1,,,"concentration not given, Paris laboratory",,viral replication inhibition,inactive
